Experimental data from different studies.
Parts stem from different laboratories: compare values within a part only. Substitutions count along the parent as printed.

Study 1 — method: DHFR PCA, deep sequencing; sample: yeast; with: (+)-ABA 1.4 µM; reference: wild-type fitted maximum; direction: higher = stronger binding; quantity: relative binding score
Target: ABI1, truncated, D143A, DHFR fusion (Arabidopsis thaliana)
Setting: methotrexate growth selection, single substitutions
Starting sequence: PYL1, truncated, DHFR fusion (Arabidopsis thaliana); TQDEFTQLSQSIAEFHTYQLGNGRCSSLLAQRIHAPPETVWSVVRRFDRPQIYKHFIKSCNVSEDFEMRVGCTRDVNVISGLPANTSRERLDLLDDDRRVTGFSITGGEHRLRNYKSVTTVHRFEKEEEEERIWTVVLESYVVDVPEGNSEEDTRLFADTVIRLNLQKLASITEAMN
K58H: 30.6%
V137C: 1.82%
K126S: 84.4%
S11Q: 68.8%
E151T: 39.6%
T119F: -6.65%

Study 2 — target: CCNB3, cyclin fold, Cln2 fusion (human); method: yeast growth competition, sequencing; sample: yeast; setting: weak parent motif; reference: not given; direction: higher = stronger binding; quantity: normalised enrichment score
Starting sequence: PKN2 docking peptide (human); VSAVQKLDFSDTM; partner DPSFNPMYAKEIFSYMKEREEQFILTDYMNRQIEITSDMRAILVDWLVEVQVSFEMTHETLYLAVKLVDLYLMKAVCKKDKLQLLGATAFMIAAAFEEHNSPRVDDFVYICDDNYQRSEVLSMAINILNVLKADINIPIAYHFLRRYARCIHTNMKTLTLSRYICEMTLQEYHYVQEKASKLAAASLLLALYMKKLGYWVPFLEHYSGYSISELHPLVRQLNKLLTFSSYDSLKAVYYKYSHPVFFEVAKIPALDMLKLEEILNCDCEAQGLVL
F9H: -0.223
D8V: 0.378
M13P: -0.0768
D11E: 0.356
M13R: 0.408
V4I: 0.323
A3L: 0.0885
V1P: 0.474
D8R: 0.129

Study 3 — method: universal PBM; form: double-stranded DNA, one strand shown; sample: in vitro; concentration: not given; direction: higher = stronger binding; quantity: E-score
Target: Sal-like protein 4, full length isoform B (SALL4, Homo sapiens, UniProt Q9UJQ4-2, residues 1-616)
Setting: 8-mer, flanks averaged, mean of replicates
ACACGGAA: 0.00235
AGCGCCTC: -0.269
CAACCAAA: -0.0186
ACTATTCC: 0.0817
CTCATCCA: 0.0278
ATCAAATA: 0.33
CGTCTGAC: -0.204
CACGACGA: -0.0995
AGAAACCC: 0.0054

Other studies, line by line
PhoQ, residues 284 288 289 292 302 303 SLANKL — fold induction (PhoP, residues 12 14 15 18 19 VQGLL (Escherichia coli, UniProt P23836); Sort-seq, refers to: YFP reporter; E. coli; PhoQ-PhoP variant library, with: 10 µM Mg2+; reference: high Mg2+ state, higher = stronger signaling): 18.4
